Assay results pooled from the literature.
Each numbered part is a random draw from the data of one study; scales do not carry over between parts. Positions count from the first letter of the parent shown.

Block 1
Target: Histone acetyltransferase KAT6A, winged helix 2, GST fusion (KAT6A, Homo sapiens, UniProt Q92794, residues 85-181)
Technique: protein binding microarray
Molecule type: double-stranded DNA, one strand shown
Sample: in vitro
Concentration: not given
Notes: 8-mer, flanks averaged, mean of 2 arrays, mostly near background
Relative to: not given
Reading: higher = stronger binding
Target sequence (chain): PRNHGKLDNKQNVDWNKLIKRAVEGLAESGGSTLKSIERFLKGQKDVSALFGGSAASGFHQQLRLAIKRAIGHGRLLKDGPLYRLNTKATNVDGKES
| Sequence | E-score |
| --- | --- |
| AGACCAAA | 0.00326 |
| TAGTCCGA | -0.161 |
| CTATCTGA | 0.0369 |
| GTTTAATA | 0.0344 |
| GCGATAAA | -0.00255 |
| AGTTGCAA | -0.12 |
| TAAATCTA | 0.0924 |
| AAGGTTGT | 0.00315 |

Block 2
Target: CCNB3, cyclin fold, Cln2 fusion (human)
Technique: yeast growth competition, sequencing
Sample: yeast
Notes: strong parent motif
Relative to: not given
Reading: higher = stronger binding
Starting sequence: viral docking peptide; TSVRRALFTGGSD
| Change | normalised enrichment score |
| --- | --- |
| TSVRRALFTRGSD [G10R] | 1.5 |
| TSVRQALFTGGSD [R5Q] | 0.162 |
| TSVRRALFTPGSD [G10P] | 1.68 |

Block 3
Target: UDP-N-acetylglucosamine--peptide N-acetylglucosaminyltransferase 110 kDa subunit (OGT, Homo sapiens, UniProt O15294)
Effect on: binding
Technique: phage display NGS
Molecule type: peptide
Concentration: concentration not given
Relative to: input library
Target sequence (O15294 1-1046): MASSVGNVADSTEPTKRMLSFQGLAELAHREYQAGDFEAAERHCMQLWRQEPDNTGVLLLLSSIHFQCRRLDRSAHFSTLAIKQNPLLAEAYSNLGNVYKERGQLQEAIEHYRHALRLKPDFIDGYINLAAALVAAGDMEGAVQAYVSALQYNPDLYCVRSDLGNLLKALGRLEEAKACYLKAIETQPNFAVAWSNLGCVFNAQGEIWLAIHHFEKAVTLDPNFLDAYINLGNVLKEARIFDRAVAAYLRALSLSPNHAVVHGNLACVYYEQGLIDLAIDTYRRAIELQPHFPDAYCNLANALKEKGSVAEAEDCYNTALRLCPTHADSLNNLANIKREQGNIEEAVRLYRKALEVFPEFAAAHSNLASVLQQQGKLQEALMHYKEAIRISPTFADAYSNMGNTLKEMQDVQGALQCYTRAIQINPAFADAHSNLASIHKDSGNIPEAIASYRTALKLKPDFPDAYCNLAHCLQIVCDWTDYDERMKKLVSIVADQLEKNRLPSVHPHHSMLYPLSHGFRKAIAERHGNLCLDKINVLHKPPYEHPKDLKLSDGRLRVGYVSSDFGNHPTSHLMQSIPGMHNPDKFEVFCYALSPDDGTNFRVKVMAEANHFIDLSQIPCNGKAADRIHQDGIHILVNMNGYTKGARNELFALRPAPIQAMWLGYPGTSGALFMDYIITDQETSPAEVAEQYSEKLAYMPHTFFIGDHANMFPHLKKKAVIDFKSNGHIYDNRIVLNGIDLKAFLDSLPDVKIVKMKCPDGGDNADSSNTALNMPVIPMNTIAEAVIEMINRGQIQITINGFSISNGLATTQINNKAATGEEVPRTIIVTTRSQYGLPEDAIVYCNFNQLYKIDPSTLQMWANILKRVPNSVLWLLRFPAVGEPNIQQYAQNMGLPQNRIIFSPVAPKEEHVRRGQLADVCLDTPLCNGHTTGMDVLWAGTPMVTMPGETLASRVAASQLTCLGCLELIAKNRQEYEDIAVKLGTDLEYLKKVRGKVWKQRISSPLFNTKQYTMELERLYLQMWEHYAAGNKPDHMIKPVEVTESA
| Sequence | enrichment fold change |
| --- | --- |
| SFPHRVHHEHSYYEH | 8.88 |
| HDVAMAKLHHQQFDY | 2.38 |
| QPEWRPQYQIRITSM | 5.4 |

Block 4
Target: Prothrombin, mature alpha-thrombin (F2, Homo sapiens, UniProt P00734)
Technique: aptamer microarray, sandwich
Molecule type: DNA with 2'F-ANA
Sample: in vitro
Concentration: 200 nM
Notes: whole 15-mer aptamer, many near background
With: Cy3 exosite-II aptamer, 400 nM
Reading: higher = stronger binding
Sequence: GGTTGGTGTGGTTGG
| Modification | mean fluorescence intensity [a.u.] |
| --- | --- |
| 2'F-ANA at 1 2 4 5 6 8 9 11 | 54.4 |
| 2'F-ANA at 1 3 4 5 6 7 8 10 11 14 | 85.2 |
| 2'F-ANA at 1 4 6 11 12 15 | 179 |
| 2'F-ANA at 1 4 5 15 | 52.7 |
| 2'F-ANA at 1 3 5 7 11 12 13 14 | 45 |
| 2'F-ANA at 1 2 3 6 7 8 9 12 15 | 437 |
| 2'F-ANA at 1 4 5 7 10 11 13 | 47.7 |
| 2'F-ANA at 2 3 4 5 6 7 8 9 12 14 15 | 61.9 |

Some of these lines once more (block 4):
| Modification | mean fluorescence intensity [a.u.] |
| --- | --- |
| 2'F-ANA at 1 3 4 5 6 7 8 10 11 14 | 85.2 |
| 2'F-ANA at 1 4 5 15 | 52.7 |
